# Experimental data pooled from the literature.
# Numbered parts are unrelated; each lists some results of a single study. Changes are numbered by the printed parent chain.

# Study 1
# Target: Ras GTPase-activating protein-binding protein 1, C-terminal RGG region (G3BP1, Homo sapiens, UniProt Q13283)
# UniProt Q13283, sequence (whole entry, looked up): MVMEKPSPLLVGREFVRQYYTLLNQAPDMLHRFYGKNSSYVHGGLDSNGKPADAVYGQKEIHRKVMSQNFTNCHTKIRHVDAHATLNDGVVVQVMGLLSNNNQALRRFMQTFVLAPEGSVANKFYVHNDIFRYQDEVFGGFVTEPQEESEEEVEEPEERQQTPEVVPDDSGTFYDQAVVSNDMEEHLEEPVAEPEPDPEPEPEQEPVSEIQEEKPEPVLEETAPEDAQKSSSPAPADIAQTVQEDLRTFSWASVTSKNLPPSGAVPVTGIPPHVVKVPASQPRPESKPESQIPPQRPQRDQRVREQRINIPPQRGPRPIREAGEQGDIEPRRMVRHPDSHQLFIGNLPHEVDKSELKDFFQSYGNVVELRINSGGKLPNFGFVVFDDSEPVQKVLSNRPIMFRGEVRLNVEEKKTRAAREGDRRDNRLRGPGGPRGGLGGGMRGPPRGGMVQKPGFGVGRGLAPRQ
# Method: RNA Bind-n-Seq
# Molecule type: RNA
# Medium: in vitro
# Tested at: 1 µM
# Setting: whole 134-nt RNA, ends assumed
# Together with: 150 mM KCl
# Relative to: input library
# Reading: higher = stronger binding
Sequence,log2 enrichment
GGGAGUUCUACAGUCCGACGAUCUAACUUUAGAGGAGGAUCUGAUGGAUAUGGCAGUGGACGUGGAUUUGGGGAUGGCUAUAAUGGGUAGGGAGGAGGACCUGGAGGUGGCAAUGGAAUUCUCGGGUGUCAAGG,-0.611
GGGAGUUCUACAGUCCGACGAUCAAGUCCUGUGCUACACAUCGUAUGUACCGAAUCAAAUUUAAACCCCCAAACCCAAAAAAGUAUUAUGUUACGCCGUUCGGAUCUGCACUUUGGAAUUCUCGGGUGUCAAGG,-0.963
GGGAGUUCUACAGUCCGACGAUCCCUGUGCUACACAUCGUAUGUACCGAAUCGGGGCCCCCCCGGGCCCCCCCGGCCCCCCCGGAAAGUAUUAUGUUACGCCGUUCGGAUCUGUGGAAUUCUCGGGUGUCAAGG,-1.27
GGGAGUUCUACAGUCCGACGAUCUCCUGUGCUACACAUCGUAUGUACCGAAUCGGGCCCCCCCGGCCCCCCCGGCCCCCCCGGAAAGUAUUAUGUUACGCCGUUCGGAUCUGCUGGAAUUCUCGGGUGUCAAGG,-1.08
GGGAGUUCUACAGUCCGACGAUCUCAAGUCCUGUGCUACACAUCGUAUGUACCGAAUCGGCCCGGCCCGGGGCCCGGGAAAGUAUUAUGUUACGCCGUUCGGAUCUGCACUUCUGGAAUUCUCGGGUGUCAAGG,-1.38
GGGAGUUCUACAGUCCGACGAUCAGUCCUGUGCUACACAUCGUAUGUACCGAAUCGGGAAAAAGGGUUUGGGUUUUUGGGAAAGUAUUAUGUUACGCCGUUCGGAUCUGCACUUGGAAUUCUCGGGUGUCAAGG,0.665
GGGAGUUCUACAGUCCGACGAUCGUCCUGUGCUACACAUCGUAUGUACCGAAUCAAAUUUUUAAAUUUAAAUUUUUUUAAAAAAGUAUUAUGUUACGCCGUUCGGAUCUGCACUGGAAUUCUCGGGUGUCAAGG,-2.22
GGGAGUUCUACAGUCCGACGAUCACCAUGCAGGUGGGCAUCUUUGGGAAGUGGGACAAGGGGGGGAUAGGGAGGGGGGUAACACUUUGGGAACAGGUGGUCCCAGGUCGUUUCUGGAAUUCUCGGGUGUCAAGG,-1.48
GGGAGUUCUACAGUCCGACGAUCUCCUCAAGUCCUGUGCUACACAUCGUAUGUACCGAAUCGGCGGGCGGCGGGGAAAGUAUUAUGUUACGCCGUUCGGAUCUGCACUUCCAGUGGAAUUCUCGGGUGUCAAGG,-0.369
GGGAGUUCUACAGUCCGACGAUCAAGUCCUGUGCUACACAUCGUAUGUACCGAAUCGGAAAGGUUUUUUUGGUUUUUGGAAAGUAUUAUGUUACGCCGUUCGGAUCUGCACUUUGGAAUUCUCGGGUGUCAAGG,-2.33

# Study 2
# Target: RNA binding protein fox-1 homolog 2, RRM domain, GST-SBP tag (RBFOX2, Homo sapiens, UniProt O43251-10, residues 100-194)
# Method: RNA Bind-n-Seq
# Molecule type: RNA
# Medium: in vitro
# Tested at: 365 nM
# Setting: natural RNA segment, single round, ends assumed
# Relative to: no-protein control
# Reading: higher = stronger binding
# Target sequence (chain): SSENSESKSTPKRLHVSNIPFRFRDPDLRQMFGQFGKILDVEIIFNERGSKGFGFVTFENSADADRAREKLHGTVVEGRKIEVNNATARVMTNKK
Sequence,RBNS enrichment (R)
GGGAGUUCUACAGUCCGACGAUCUUCCUCCACCUCCUCCCUCCAGCGUUGCUCAGACCUCUGUCUUGGGAGAAAGGUUGAGAUAAGAAUGUCCCAUGGAGUGCCGUGGGCAACAGUGGCCCUUCAUGGGAACAUGGAAUUCUCGGGUGCCAA,0.257
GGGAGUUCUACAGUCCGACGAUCUCCUGUACCAGCACCUCCGUUUUCAGUCAGUGUUGUCCAGCAACGGUACCGUUUACACAGUCACCUCAGACACACCAUUUCACCUCCCUUGCCAAGCUGUUAGCCUUAGAUGGAAUUCUCGGGUGCCAA,0.615
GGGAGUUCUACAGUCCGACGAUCUGCUUUGUAUCAUACCCAAUAUUUAAGGACAAUUUGUCACUCAGAGGACUUUAGAGUUAUAUUCCAACAUUCAACCUAUAGAUAAGAAACAUUUCUAACCUUUGGUUUGCUGGAAUUCUCGGGUGCCAA,0.352
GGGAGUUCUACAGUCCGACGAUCCAGGCACUGUGUUAGGCGCUUUUAUAUAGAUCCUCGUUAGGAUGAGACUAAGGGAUGAGGACAUCUCUUUAUAAAAGGCCCCUAAGUAAUGGAUAAACAGAAACACUUAGUGGAAUUCUCGGGUGCCAA,0.744
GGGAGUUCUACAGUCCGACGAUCAAGACUUUGCAGCAUUUUAGCCAGGCAGUAUUUACUCAUUAUUAGGAAAAUCAAGAUGUGGCUGAAGAUCAGAGGCUCAGUUAGCAACCUGUGUUGUAGCAGUGAUGUCAUGGAAUUCUCGGGUGCCAA,0.552
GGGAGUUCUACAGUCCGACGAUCGUUCUCUGUAAUUACAUGUCACCACACCAGGCUUUAGUGGCCAGGAGGGAUUUGACCUUGUUCCCAAGGGAUUGAGAGUCUAGUGAGCAGCCCAGGGGCAAAGGCAGUCAUGGAAUUCUCGGGUGCCAA,0.436
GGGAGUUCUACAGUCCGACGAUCCGGAGGUUGCAGUGAGCCAGGAUUGUGCCAUUGCACUCCAGCCUGGGCAACAAGAACAAAACUCCAUCUCAAAAAAUAAAAAUCCCAAUCCCAAGUCGAAAUCACCUCUUUGGAAUUCUCGGGUGCCAA,0.768
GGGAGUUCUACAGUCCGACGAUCAUGAUGAAACAUUCAUUUUUACCUUGUGGAUGCUAGUGCUGUAGAGUUCACUGUUGUACACAGUCUGUUUUCUAUUUGUUAAGAAAAACUACAGCAUCAUUGCAUAAUUCUGGAAUUCUCGGGUGCCAA,1.01
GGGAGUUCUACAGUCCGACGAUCCUGUCCCCAUGAGCGGAGUCUGUCCUCUGCUCUUCUGCAGUCAGGUCACUGCCUACUGCCUGGGGGCUCUAGUCAUUCCAGUGGAAGACGAAUGUAACCUGCGUGGUGAUUGGAAUUCUCGGGUGCCAA,0.401
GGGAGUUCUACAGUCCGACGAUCACUUGACUGAAUUAUGGCUUGGCACAGUGGUUGGCGAGCCUCGUAGUAUAGUCAAAUCAAUUGCAUAAGUAAUUUAUUUUCUACUUCUUAUGUCUGUGAUAAUUGCUUUGUGGAAUUCUCGGGUGCCAA,0.247
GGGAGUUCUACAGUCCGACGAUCAGAUUGUUAGGCUCAGAUCAAGGGUGGGGAAAUACUGCCCUCUCGUGGUGGCUUUUCAUCCAGGCCUCGUAGCCAACCGUUUAAGUGCAAAAUAGAAUUAAGCAAUGGGUUGGAAUUCUCGGGUGCCAA,0.303
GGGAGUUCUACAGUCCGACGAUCUUACUUUAAGAUCUGUAGAAAUAAACCUAAGUUAAUUUUCCCCCAAAUCACGAGCAUCCGUGAUGGGGUAGCCAAGCUGUUAAGGUGGCAGGAGGCUGGUCAGCGUCGGGUGGAAUUCUCGGGUGCCAA,0.547

# Study 3
# Target: ABI1, truncated, D143A, DHFR fusion (Arabidopsis thaliana)
# Method: DHFR PCA, deep sequencing
# Medium: yeast
# Setting: methotrexate growth selection, single substitutions
# Together with: (+)-ABA 200 µM
# Relative to: wild-type fitted maximum
# Reading: higher = stronger binding
# Parent: PYL1, truncated, DHFR fusion (Arabidopsis thaliana); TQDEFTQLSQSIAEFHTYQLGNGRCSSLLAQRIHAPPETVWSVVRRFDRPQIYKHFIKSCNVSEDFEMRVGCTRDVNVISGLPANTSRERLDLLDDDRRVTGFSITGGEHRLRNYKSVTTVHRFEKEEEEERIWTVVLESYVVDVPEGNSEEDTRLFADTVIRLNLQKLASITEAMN
Variant,relative binding score [%]
K168D,47.9
V76T,77.7
H55P,107
Q2R,99.5
G71T,44
T73Q,99.2
S63C,97.7
D97G,96.3
G108W,16
T73Y,110
H110F,3.16
K54Q,-18.2
Q19P,97.1
S171I,93.1
H55C,103
E129V,108

# Study 4
# Target: CCNA2, cyclin fold, Cln2 fusion (human)
# Method: yeast growth competition, sequencing
# Medium: yeast
# Setting: strong parent motif
# Relative to: not given
# Reading: higher = stronger binding
# Parent: MICAL3 docking peptide (human); LQLRRQLSFSEDS
Variant,normalised enrichment score
LQLRRQLSASEDS [F9A],0.128
LQVRRQLSFSEDS [L3V],5.85
LQLRRQLSVSEDS [F9V],-0.138
LQLRNQLSFSEDS [R5N],0.519
LFLRRQLSFSEDS [Q2F],3.37
LQLRRQLIFSEDS [S8I],4.75
LQCRRQLSFSEDS [L3C],5.55
LQHRRQLSFSEDS [L3H],1.99
LQLRRQLSFSEIS [D12I],3.84
LQLRRQQSFSEDS [L7Q],0.165
LQLRRILSFSEDS [Q6I],1.3
LQLRAQLSFSEDS [R5A],0.0312
LQLRRFLSFSEDS [Q6F],1
LQLRRMLSFSEDS [Q6M],2.81
LQLYRQLSFSEDS [R4Y],0.903
LQLRRQLSFEEDS [S10E],2.61
LQLRRQLSFSESS [D12S],3.18

# For quick reference, copied from above (study 4):
Variant,normalised enrichment score
LQLRNQLSFSEDS [R5N],0.519
LFLRRQLSFSEDS [Q2F],3.37
LQLRRQLIFSEDS [S8I],4.75
LQCRRQLSFSEDS [L3C],5.55
